# Experimental data pooled from the literature.
# Protocols differ between the studies behind these lines. ± marks the error that the study gave.
# Organism: Klebsiella pneumoniae
Compound,test,test system,setting,MIC
CCn1c(-c2ccc(OC)cc2)c(-c2ccc(OC)cc2)n(Cc2c(C)cc(C)cc2C)c1=[Se+][Au-][P+](c1ccccc1)(c1ccccc1)c1ccccc1.[Cl-],broth microdilution,carbapenem-resistant BAA-1705,24 h,> 40 µM
C[C@@](O)(C(F)F)[C@H](NC(=O)c1ccc(C#CC#CC2CC2)cc1)C(=O)NO,broth microdilution,"10031, CAMHB with 50% mouse plasma",,0.01 µg/mL
CC[C@H](C)[C@H](NC(=O)[C@@H](CCCNC(=N)N)NC(=O)[C@H](CCCNC(=N)N)NC(=O)[C@@H]1CCCN1C(=O)[C@H](Cc1c[nH]c2ccccc12)NC(=O)[C@H](CCCNC(=N)N)NC(=O)[C@@H]1CCCN1C(=O)[C@H](CCCNC(=N)N)NC(=O)[C@@H]1CCCN1C(=O)[C@H](CC(C)C)NC(=O)[C@H](Cc1ccc(O)cc1)NC(=O)[C@@H]1CCCN1C(=O)[C@@H]1CCCN1C(=O)[C@H](CCCCN)NC(=O)[C@H](CC(=O)O)NC(=O)[C@@H](N)C(C)C)C(=O)N[C@@H](Cc1ccc(O)cc1)C(=O)N[C@@H](CC(N)=O)C(=O)N[C@H](CCCNC(=N)N)C(N)=O,broth microdilution,DSM 681,18 h,4 µg/mL
c1ccc(CN2CCOCCOCCN(CCCCCCCCCCCCCCN3CCOCCOCCN(CCCCCCCCCCCCCCN4CCOCCOCCN(Cc5ccccc5)CCOCCOCC4)CCOCCOCC3)CCOCCOCC2)cc1,,ESBL SHV-12,,24 µM
CC(C)[C@H](NC(=O)[C@H](CCCNC(=N)N)NC(=O)[C@H](CCCNC(=N)N)NC(=O)[C@@H](NC(=O)[C@H](C)NC(=O)[C@H](CC(N)=O)NC(=O)[C@H](CCCNC(=N)N)NC(=O)[C@@H](NC(=O)[C@H](CCCNC(=N)N)NC(=O)[C@H](CCCNC(=N)N)NC(=O)[C@@H](NC(=O)[C@@H](NC(=O)[C@H](CCCNC(=N)N)NC(=O)[C@H](CCCNC(=N)N)NC(=O)[C@H](Cc1c[nH]c2ccccc12)NC(=O)[C@H](Cc1c[nH]c2ccccc12)NC(=O)CN)[C@@H](C)O)C(C)C)C(C)C)C(C)C)C(=O)O,,ATCC 10031,"18 h, 37 °C",128 µg/mL
COc1ccc2ccc3c(c2c1)C=[N+]1C2CCCCC2[N+]2=Cc4ccc(-c5ccccc5)cc4[O][Au-]21[O]3.F[P-](F)(F)(F)(F)F (centres unmarked),"bacterial growth, broth microdilution",carbapenem-resistant clinical isolate,24 h,> 20 µM
CN1/C(=C/C=C/c2cc(-c3ccccc3)cc(-c3ccccc3)[o+]2)C(C)(C)c2ccccc21,broth dilution,"NR-15410, KPC",,8 µg/mL
CC(C)C[C@H](NC(=O)[C@H](CCCCN)NC(=O)[C@H](CCCCNC(=O)[C@H](CC(C)C)NC(=O)[C@H](CCCCN)NC(=O)[C@H](CCCCNC(=O)[C@H](CC(C)C)NC(=O)[C@H](CCCCN)NC(=O)[C@H](CCCCNC(=O)[C@H](CC(C)C)NC(=O)[C@@H](N)CCCCN)NC(=O)[C@H](CC(C)C)NC(=O)[C@@H](N)CCCCN)NC(=O)[C@H](CC(C)C)NC(=O)[C@H](CCCCN)NC(=O)[C@H](CCCCNC(=O)[C@H](CC(C)C)NC(=O)[C@@H](N)CCCCN)NC(=O)[C@H](CC(C)C)NC(=O)[C@@H](N)CCCCN)NC(=O)[C@H](CC(C)C)NC(=O)[C@H](CCCCN)NC(=O)[C@H](CCCCNC(=O)[C@H](CC(C)C)NC(=O)[C@H](CCCCN)NC(=O)[C@H](CCCCNC(=O)[C@H](CC(C)C)NC(=O)[C@@H](N)CCCCN)NC(=O)[C@H](CC(C)C)NC(=O)[C@@H](N)CCCCN)NC(=O)[C@H](CC(C)C)NC(=O)[C@H](CCCCN)NC(=O)[C@H](CCCCNC(=O)[C@H](CC(C)C)NC(=O)[C@@H](N)CCCCN)NC(=O)[C@H](CC(C)C)NC(=O)[C@@H](N)CCCCN)C(N)=O,broth microdilution,NCTC 418,37 °C,> 64 µg/mL
COc1ccc2ccc3c(c2c1)C=[N+]1C2CCCCC2[N+]2=Cc4ccc(C)cc4[O][Au-]21[O]3.F[P-](F)(F)(F)(F)F (centres unmarked),"bacterial growth, broth microdilution",carbapenem-resistant clinical isolate,24 h,> 20 µM
CC(C)C[C@H](NC(=O)[C@H](Cc1ccc(O)cc1)NC(=O)[C@@H]1CCCN1C(=O)[C@H](CCCNC(=N)N)NC(=O)[C@@H]1CCCN1C(=O)[C@H](CCCCN)NC(=O)[C@H](CC(=O)O)NC(=O)[C@@H]1CCCN1C(=O)[C@H](CCCNC(=N)N)NC(=O)C1(N)CCCCC1)C(=O)N1CCC[C@H]1C(=O)N[C@@H](CCCNC(=N)N)C(=O)N1CCC[C@H]1C(=O)N[C@@H](CCCNC(=N)N)C(=O)N1CCC[C@H]1C(=O)N1CCC[C@H]1C(=O)N[C@@H](CCCNC(=N)N)C(=O)N1CCC[C@H]1C(=O)N[C@H](C(=O)N[C@@H](CCCNC(=N)N)C(=O)N[C@@H](CSCc1cccc(CSC[C@H](NC(=O)[C@H](CCCNC(=N)N)NC(=O)[C@@H](NC(=O)[C@@H]2CCCN2C(=O)[C@H](CCCNC(=N)N)NC(=O)[C@@H]2CCCN2C(=O)[C@@H]2CCCN2C(=O)[C@H](CCCNC(=N)N)NC(=O)[C@@H]2CCCN2C(=O)[C@H](CCCNC(=N)N)NC(=O)[C@@H]2CCCN2C(=O)[C@H](CC(C)C)NC(=O)[C@H](Cc2ccc(O)cc2)NC(=O)[C@@H]2CCCN2C(=O)[C@H](CCCNC(=N)N)NC(=O)[C@@H]2CCCN2C(=O)[C@H](CCCCN)NC(=O)[C@H](CC(=O)O)NC(=O)[C@@H]2CCCN2C(=O)[C@H](CCCNC(=N)N)NC(=O)C2(N)CCCCC2)C(C)C)C(=O)NN)c1)C(=O)NN)C(C)C,bacterial growth,"ATCC 13883, 100% Mueller-Hinton broth","90 min, 37 °C, strain ATCC 13883",3.6 ± 0.7 µg/mL
COc1ccc2ccc3c(c2c1)C=[N+]1C2CCCCC2[N+]2=Cc4cc(C)ccc4[O][Au-]21[O]3.F[P-](F)(F)(F)(F)F (centres unmarked),"bacterial growth, broth microdilution",carbapenem-resistant,24 h,> 20 µM
CC[C@@H](C)[C@@H](NC(=O)[C@@H](C)NC(=O)[C@H](NC(=O)[C@@H](CC(=O)O)NC(=O)[C@@H](CCCCN)NC(=O)[C@@H](CO)NC(=O)[C@H](NC(=O)[C@@H](CC(N)=O)NC(=O)[C@@H](C)NC(=O)[C@H](NC(=O)[C@@H](CCC(=O)O)NC(=O)[C@@H](CCCCN)NC(=O)[C@H](NC(=O)[C@H](NC(=O)[C@@H](Cc1c[nH]cn1)NC(=O)[C@@H](CCCCN)NC(=O)[C@H](NC(=O)[C@@H](CCCCN)NC(=O)[C@@H](CCCCN)NC(=O)[C@H](NC(=O)[C@@H](CC(C)C)NC(=O)[C@@H](CCCCN)NC(=O)[C@@H](CC(N)=O)NC(=O)[C@@H](Cc1ccccc1)NC(=O)[C@@H](CCCNC(=N)N)NC(=O)[C@@H](CCCCN)NC(=O)[C@@H](CCCNC(=N)N)NC(=O)[C@@H](Cc1ccccc1)NC(=O)CN)C(C)C)C(C)C)[C@H](C)O)[C@H](C)CC)[C@H](C)O)C(C)C)C(C)C)C(=O)N[C@@H](C(=O)N[C@H](C)C(=O)NCC(=O)N[C@H](CO)C(=O)NCC(=O)N[C@@H](C(=O)N[C@H](C)C(=O)N[C@@H](C(=O)NCC(=O)N[C@H](C)C(=O)N[C@H](C)C(=O)N[C@H](CCSC)C(N)=O)C(C)C)C(C)C)C(C)C,,"isolate RKI 19/16, CAMHB",,32 µg/mL
COc1ccc2ccc3c(c2c1)C=[N+]1C2CCCCC2[N+]2=Cc4ccc(OCCN5CCCCC5)cc4[O][Au-]21[O]3.F[P-](F)(F)(F)(F)F (centres unmarked),"bacterial growth, broth microdilution",carbapenem-resistant,24 h,10 µM
NCCCC[C@@H]1NC(=O)[C@@H](CCCCN)NC(=O)[C@H](CCCCN)NC(=O)[C@@H](CCCCN)NC(=O)[C@H](Cc2c[nH]c3ccccc23)NC(=O)[C@@H](Cc2c[nH]c3ccccc23)NC(=O)[C@@H](N)CSCc2ccc(cc2)CSC[C@@H](C(N)=O)NC(=O)[C@@H](Cc2c[nH]c3ccccc23)NC(=O)[C@H](Cc2c[nH]c3ccccc23)NC(=O)[C@@H](CCCCN)NC1=O,,,,> 64 µg/mL

# A few entries again:
Compound,test,test system,setting,MIC
CC[C@H](C)[C@H](NC(=O)[C@@H](CCCNC(=N)N)NC(=O)[C@H](CCCNC(=N)N)NC(=O)[C@@H]1CCCN1C(=O)[C@H](Cc1c[nH]c2ccccc12)NC(=O)[C@H](CCCNC(=N)N)NC(=O)[C@@H]1CCCN1C(=O)[C@H](CCCNC(=N)N)NC(=O)[C@@H]1CCCN1C(=O)[C@H](CC(C)C)NC(=O)[C@H](Cc1ccc(O)cc1)NC(=O)[C@@H]1CCCN1C(=O)[C@@H]1CCCN1C(=O)[C@H](CCCCN)NC(=O)[C@H](CC(=O)O)NC(=O)[C@@H](N)C(C)C)C(=O)N[C@@H](Cc1ccc(O)cc1)C(=O)N[C@@H](CC(N)=O)C(=O)N[C@H](CCCNC(=N)N)C(N)=O,broth microdilution,DSM 681,18 h,4 µg/mL
